{"data": "Published values pooled from the literature", "note": "Numbered parts are unrelated; each lists some results of a single study. Several values in a cell are separate wells, animals, samples, runs or records.", "UniProt Q15418, sequence (whole entry, looked up)": "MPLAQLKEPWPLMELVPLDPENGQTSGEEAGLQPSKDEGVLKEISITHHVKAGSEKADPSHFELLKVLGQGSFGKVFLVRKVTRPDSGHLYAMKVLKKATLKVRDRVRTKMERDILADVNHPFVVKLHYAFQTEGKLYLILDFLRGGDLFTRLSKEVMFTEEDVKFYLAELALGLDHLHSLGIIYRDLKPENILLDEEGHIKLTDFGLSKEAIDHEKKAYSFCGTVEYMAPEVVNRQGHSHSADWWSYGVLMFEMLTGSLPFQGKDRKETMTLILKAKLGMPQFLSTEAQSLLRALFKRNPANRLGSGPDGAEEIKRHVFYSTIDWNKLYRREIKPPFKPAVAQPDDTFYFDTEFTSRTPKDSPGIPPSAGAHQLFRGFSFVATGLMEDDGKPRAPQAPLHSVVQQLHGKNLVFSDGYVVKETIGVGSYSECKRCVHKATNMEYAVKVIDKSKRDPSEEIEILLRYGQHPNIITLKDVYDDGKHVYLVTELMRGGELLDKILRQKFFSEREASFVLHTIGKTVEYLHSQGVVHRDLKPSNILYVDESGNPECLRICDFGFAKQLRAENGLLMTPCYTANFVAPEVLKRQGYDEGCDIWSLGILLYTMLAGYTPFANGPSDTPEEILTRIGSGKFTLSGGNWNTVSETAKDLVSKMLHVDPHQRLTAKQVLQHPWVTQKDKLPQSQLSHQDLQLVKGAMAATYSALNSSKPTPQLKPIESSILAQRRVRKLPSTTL", "UniProt Q9P1W9, sequence (whole entry, looked up)": "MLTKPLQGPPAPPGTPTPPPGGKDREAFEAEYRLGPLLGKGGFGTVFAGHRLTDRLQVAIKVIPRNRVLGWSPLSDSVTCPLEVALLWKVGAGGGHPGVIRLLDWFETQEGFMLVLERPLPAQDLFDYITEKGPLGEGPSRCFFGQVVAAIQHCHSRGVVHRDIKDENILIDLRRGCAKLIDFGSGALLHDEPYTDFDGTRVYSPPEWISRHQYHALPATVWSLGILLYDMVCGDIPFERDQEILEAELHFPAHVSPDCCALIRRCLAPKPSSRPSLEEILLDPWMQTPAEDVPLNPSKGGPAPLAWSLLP", "UniProt P29323, sequence (whole entry, looked up)": "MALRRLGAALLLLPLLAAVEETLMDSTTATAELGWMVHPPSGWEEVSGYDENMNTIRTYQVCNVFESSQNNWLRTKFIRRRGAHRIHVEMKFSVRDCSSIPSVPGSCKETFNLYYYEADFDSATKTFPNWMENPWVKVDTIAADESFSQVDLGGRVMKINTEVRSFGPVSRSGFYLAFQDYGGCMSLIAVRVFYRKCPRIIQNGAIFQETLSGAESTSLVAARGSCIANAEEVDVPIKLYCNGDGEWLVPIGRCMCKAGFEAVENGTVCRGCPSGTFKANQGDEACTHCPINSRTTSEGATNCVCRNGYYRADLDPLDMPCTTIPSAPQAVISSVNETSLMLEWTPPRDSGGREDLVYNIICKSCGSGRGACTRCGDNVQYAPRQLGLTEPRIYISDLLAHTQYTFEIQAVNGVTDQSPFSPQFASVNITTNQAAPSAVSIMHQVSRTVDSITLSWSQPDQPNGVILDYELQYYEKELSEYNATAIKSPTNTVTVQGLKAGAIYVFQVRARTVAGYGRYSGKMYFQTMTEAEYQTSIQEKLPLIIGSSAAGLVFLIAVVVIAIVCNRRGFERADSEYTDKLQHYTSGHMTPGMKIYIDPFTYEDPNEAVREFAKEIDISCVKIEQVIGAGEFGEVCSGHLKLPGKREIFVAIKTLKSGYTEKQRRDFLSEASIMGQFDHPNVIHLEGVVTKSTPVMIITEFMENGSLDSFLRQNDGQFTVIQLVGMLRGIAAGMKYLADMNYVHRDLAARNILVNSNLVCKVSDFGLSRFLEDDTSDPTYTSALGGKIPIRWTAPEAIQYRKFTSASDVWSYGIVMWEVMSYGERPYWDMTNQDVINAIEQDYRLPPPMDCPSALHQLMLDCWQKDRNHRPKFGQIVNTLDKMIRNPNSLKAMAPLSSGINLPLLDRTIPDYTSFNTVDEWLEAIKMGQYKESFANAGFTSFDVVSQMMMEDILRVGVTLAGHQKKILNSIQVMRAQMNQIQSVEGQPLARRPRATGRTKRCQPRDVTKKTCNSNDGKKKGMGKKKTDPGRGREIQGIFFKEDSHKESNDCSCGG", "UniProt P22455, sequence (whole entry, looked up)": "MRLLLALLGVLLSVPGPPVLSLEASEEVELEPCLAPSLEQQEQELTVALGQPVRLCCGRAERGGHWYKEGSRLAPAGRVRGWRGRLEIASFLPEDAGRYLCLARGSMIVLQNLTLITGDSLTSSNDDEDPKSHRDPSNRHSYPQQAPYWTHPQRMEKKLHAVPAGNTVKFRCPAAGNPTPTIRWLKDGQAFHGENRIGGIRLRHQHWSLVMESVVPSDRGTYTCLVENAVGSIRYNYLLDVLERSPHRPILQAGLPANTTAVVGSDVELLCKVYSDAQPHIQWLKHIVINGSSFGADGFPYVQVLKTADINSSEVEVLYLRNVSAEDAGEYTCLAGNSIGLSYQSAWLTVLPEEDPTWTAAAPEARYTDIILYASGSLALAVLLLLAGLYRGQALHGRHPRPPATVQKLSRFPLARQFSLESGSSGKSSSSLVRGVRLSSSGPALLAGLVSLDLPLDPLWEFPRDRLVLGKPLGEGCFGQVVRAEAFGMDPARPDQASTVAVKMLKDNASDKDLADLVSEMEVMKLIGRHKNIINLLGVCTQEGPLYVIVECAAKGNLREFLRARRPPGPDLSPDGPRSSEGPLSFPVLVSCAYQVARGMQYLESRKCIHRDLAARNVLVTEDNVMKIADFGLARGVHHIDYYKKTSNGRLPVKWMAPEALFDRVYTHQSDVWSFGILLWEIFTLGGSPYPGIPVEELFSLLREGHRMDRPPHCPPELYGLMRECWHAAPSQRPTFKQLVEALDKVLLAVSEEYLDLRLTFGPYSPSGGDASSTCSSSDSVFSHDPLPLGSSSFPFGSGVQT", "UniProt Q02156, sequence (whole entry, looked up)": "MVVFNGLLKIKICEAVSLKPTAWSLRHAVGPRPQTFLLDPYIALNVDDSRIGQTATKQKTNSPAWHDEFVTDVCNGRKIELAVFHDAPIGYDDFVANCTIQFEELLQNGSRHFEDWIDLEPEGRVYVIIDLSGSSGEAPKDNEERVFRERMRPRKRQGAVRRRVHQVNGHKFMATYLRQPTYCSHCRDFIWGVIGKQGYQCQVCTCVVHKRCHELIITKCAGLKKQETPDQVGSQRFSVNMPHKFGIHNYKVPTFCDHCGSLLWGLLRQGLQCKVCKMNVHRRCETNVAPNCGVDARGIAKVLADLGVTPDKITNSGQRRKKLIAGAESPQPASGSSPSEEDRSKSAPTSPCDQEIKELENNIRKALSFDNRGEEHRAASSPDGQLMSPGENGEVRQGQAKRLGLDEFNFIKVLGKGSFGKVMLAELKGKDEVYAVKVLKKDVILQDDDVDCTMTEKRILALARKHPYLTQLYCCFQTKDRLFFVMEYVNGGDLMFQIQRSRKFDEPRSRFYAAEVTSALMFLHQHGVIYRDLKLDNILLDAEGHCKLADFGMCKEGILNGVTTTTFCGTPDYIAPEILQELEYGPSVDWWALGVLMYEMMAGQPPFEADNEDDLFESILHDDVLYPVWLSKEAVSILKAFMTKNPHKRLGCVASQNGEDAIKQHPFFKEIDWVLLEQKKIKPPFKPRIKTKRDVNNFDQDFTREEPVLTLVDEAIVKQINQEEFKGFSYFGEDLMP", "UniProt P49840, sequence (whole entry, looked up)": "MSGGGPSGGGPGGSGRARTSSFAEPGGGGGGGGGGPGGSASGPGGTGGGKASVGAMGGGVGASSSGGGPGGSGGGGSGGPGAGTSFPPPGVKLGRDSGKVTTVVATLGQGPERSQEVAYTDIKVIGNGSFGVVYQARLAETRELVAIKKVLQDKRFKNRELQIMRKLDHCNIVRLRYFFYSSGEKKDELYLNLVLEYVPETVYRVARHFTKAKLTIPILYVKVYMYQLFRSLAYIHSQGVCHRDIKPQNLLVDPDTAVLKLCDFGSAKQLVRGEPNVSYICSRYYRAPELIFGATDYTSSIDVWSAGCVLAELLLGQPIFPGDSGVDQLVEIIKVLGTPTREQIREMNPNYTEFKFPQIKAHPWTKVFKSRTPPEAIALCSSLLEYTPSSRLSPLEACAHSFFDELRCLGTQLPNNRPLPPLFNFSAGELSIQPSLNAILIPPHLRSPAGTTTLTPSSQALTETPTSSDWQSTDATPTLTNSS"}
{"data": "Block 1", "target": "Calcium/calmodulin-dependent protein kinase type II subunit alpha (CAMK2A, Homo sapiens, UniProt Q9UQM7)", "observed": "enzyme activity", "action": "inhibitor", "tested at": "10 µM", "UniProt Q9UQM7, sequence (whole entry, looked up)": "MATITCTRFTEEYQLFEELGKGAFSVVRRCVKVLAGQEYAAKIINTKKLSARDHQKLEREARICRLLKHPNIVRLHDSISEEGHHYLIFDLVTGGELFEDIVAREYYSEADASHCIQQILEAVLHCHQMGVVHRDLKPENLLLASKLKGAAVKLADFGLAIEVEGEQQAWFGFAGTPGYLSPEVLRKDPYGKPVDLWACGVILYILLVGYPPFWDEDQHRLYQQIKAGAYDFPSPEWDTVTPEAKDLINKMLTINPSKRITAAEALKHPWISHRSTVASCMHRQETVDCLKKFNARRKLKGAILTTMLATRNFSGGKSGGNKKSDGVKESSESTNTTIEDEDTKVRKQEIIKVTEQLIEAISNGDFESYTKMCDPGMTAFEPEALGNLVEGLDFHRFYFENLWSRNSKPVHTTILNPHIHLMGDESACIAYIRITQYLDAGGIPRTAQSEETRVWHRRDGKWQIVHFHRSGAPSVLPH"}
{"Structure (SMILES)": "C=CCSSCC=C", "inhibition [%]": 23}
{"Structure (SMILES)": "CC(C)NCC(O)c1ccccc1Cl (stereo not shown)", "inhibition [%]": 3}
{"Structure (SMILES)": "COc1ccc(C(=O)O)cc1OC", "inhibition [%]": -9}
{"Structure (SMILES)": "COc1cc([C@@H]2OC[C@@H]3[C@H]2CO[C@H]3c2cc(OC)c(O[C@@H]3O[C@H](CO)[C@@H](O)[C@H](O)[C@H]3O)c(OC)c2)cc(OC)c1O[C@@H]1O[C@H](CO)[C@@H](O)[C@H](O)[C@H]1O", "inhibition [%]": 18}
{"Structure (SMILES)": "COc1ccc(C=O)cc1O", "inhibition [%]": 21}
{"Structure (SMILES)": "CC(C)(O)C(=O)Nc1ccc([N+](=O)[O-])c(C(F)(F)F)c1", "inhibition [%]": 2}
{"Structure (SMILES)": "O=C([O-])c1ccc[n+]([C@@H]2O[C@H](CO)[C@@H](O)[C@H]2O)c1", "inhibition [%]": -5}
{"Structure (SMILES)": "CCC1=C[C@@H]2CN3CCc4c([nH]c5ccccc45)[C@@](C(=O)OC)(C2)[C@@H]13", "inhibition [%]": 32}
{"data": "Block 2", "SMILES": "COc1ccc2c(c[n+](C)c3c4cc5c(cc4ccc23)OCO5)c1OC", "observed": "enzyme activity", "action": "inhibitor", "tested at": "0.5 µM", "reference": "control"}
{"target": "BMX (Homo sapiens, UniProt P51813)", "remaining activity": "104%"}
{"target": "PRKCE (Homo sapiens, UniProt Q02156)", "remaining activity": "93.6%"}
{"target": "EPHA7 (Homo sapiens, UniProt Q15375)", "remaining activity": "95.4%"}
{"target": "Aurora kinase C (AURKC, Homo sapiens, UniProt Q9UQB9)", "remaining activity": "93.5%"}
{"target": "RPS6KA1 (Homo sapiens, UniProt Q15418)", "remaining activity": "104%"}
{"target": "FGFR4 (Homo sapiens, UniProt P22455)", "remaining activity": "90.1%"}
{"target": "FLT3 (Homo sapiens, UniProt P36888)", "remaining activity": "76.9%"}
{"target": "PRKCG (Homo sapiens, UniProt P05129)", "remaining activity": "87.2%"}
{"target": "SRPK3 (Homo sapiens, UniProt Q9UPE1)", "remaining activity": "96.1%"}
{"target": "GRK6 (Homo sapiens, UniProt P43250)", "remaining activity": "104%"}
{"target": "NUAK1 (Homo sapiens, UniProt O60285)", "remaining activity": "96.6%"}
{"target": "GSK3A (Homo sapiens, UniProt P49840)", "remaining activity": "105%"}
{"target": "GRK2 (Homo sapiens, UniProt P25098)", "remaining activity": "96.6%"}
{"target": "PIM2 (Homo sapiens, UniProt Q9P1W9)", "remaining activity": "105%"}
{"target": "PAK2 (Homo sapiens, UniProt Q13177)", "remaining activity": "101%"}
{"target": "CSK (Homo sapiens, UniProt P41240)", "remaining activity": "106%"}
{"target": "CSF1R (Homo sapiens, UniProt P07333)", "remaining activity": "99%"}
{"target": "EPHB2 (Homo sapiens, UniProt P29323)", "remaining activity": "97.1%"}
{"target": "RPS6KB1 (Homo sapiens, UniProt P23443)", "remaining activity": "99.8%"}
{"target": "SGK1 (Homo sapiens, UniProt O00141)", "remaining activity": "118%"}
{"target": "MYLK (Homo sapiens, UniProt Q15746)", "remaining activity": "100%"}
{"data": "Block 3", "target": "Eukaryotic initiation factor 4A-III (Homo sapiens, UniProt P38919)", "observed": "RNA clamping", "method": "fluorescence polarization", "tested at": "concentration not given", "notes": "mean of two replicates", "together with": "FAM-labelled poly r(AG)8 RNA", "UniProt P38919, sequence (whole entry, looked up)": "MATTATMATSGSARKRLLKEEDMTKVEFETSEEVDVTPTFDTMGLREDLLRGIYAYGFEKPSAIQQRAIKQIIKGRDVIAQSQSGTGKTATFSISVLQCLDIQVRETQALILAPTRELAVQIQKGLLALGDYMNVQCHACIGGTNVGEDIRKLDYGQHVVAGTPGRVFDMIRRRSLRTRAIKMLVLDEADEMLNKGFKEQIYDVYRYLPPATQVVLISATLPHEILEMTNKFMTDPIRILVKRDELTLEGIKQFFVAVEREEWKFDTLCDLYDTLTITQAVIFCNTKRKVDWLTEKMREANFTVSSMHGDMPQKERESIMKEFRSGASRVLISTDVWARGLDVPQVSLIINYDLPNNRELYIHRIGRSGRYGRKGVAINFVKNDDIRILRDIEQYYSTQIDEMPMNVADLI"}
{"Structure (SMILES)": "COc1ccc([C@@]23Oc4cc(OC)cc(OC)c4[C@@]24NC(C)=N[C@@]4(O)[C@H](C(=O)N(C)OC)[C@H]3c2ccccc2)cc1", "fluorescence polarization change": "88.4 mP"}
{"Structure (SMILES)": "COc1ccc([C@]23Oc4cc(OC)cc(OC)c4[C@@]2(O)[C@@H](O)C[C@@H]3c2ccccc2)cc1", "fluorescence polarization change": "3 mP"}
{"Structure (SMILES)": "COc1ccc([C@@]23Oc4cc(OC)cc(OC)c4[C@]2(O)c2nc(-c4ccc(Br)cc4)[nH]c(=O)c2[C@H]3c2ccccc2)cc1", "fluorescence polarization change": "2.2 mP"}
{"Structure (SMILES)": "COc1ccc([C@@]23Oc4cc(OC)cc(OC)c4[C@]2(O)c2nc(-c4ccc(Cl)cc4)[nH]c(=O)c2[C@H]3c2ccccc2)cc1", "fluorescence polarization change": "6.7 mP"}
{"Structure (SMILES)": "COc1ccc([C@@]23Oc4cc(OC)cc(OC)c4[C@]2(O)[C@H](O)[C@H](C(=O)O)[C@H]3c2ccccc2)cc1", "fluorescence polarization change": "44.5 mP and 18.5 mP"}
{"Structure (SMILES)": "COC(=O)[C@@H]1[C@@H](O)[C@@]2(O)c3c(OC)cc(OC)cc3O[C@@]2(c2ccc(Br)cc2)[C@H]1c1ccccc1", "fluorescence polarization change": "13 mP"}
{"Structure (SMILES)": "COc1ccc([C@@]23Oc4cc(OC)cc(OC)c4[C@]2(O)c2nc(C(C)C)[nH]c(=O)c2[C@H]3c2ccccc2)cc1", "fluorescence polarization change": "17.6 mP"}
{"Structure (SMILES)": "COc1ccc([C@@]23Oc4cc(OC)cc(OC)c4[C@]2(O)c2nc(-c4cnccn4)[nH]c(=O)c2[C@H]3c2ccccc2)cc1", "fluorescence polarization change": "22.2 mP"}
{"Structure (SMILES)": "COc1ccc([C@@]23Oc4cc(OC)cc(OC)c4[C@]2(O)c2nc(-c4cccnc4)[nH]c(=O)c2[C@H]3c2ccccc2)cc1", "fluorescence polarization change": "31.2 mP"}
{"Structure (SMILES)": "[2H]C([2H])([2H])C1=N[C@@]2(O)[C@H](C(=O)OC)[C@@H](c3ccccc3)[C@]3(c4ccc(OC)cc4)Oc4cc(OC)cc(OC)c4[C@]23N1", "fluorescence polarization change": "36.1 mP"}
{"Structure (SMILES)": "COc1ccc([C@@]23Oc4cc(OC)cc(OC)c4[C@]2(O)c2nc(-c4ccncc4)[nH]c(=O)c2[C@H]3c2ccccc2)cc1", "fluorescence polarization change": "18 mP"}
{"Structure (SMILES)": "COc1ccc([C@@]23Oc4cc(OC)cc(OC)c4[C@]2(O)c2nc(-c4ccc(Cl)nc4)[nH]c(=O)c2[C@H]3c2ccccc2)cc1", "fluorescence polarization change": "21.9 mP"}
{"Structure (SMILES)": "COC(=O)[C@@H]1[C@@H](c2ccccc2)[C@]2(c3ccc(OC)cc3)Oc3cc(OC)cc(OC)c3[C@@]23OC(C)=N[C@@]13O", "fluorescence polarization change": "29 mP"}
{"data": "Block 4", "SMILES": "CNC(=O)c1ccc(-c2cnn3ccc(C(=O)N(C)c4ccc(Cl)c(C(=O)OC)c4)cc23)cc1", "organism": "Cryptosporidium parvum", "species": "neonatal calves", "dose": "dose not given", "direction": "direction not given"}
{"conditions": "day 10 post-treatment", "fecal consistency score": "1 and 2"}
{"conditions": "day 1 post-treatment", "fecal consistency score": "1 and 3 and 2"}
{"conditions": "day 13 post-treatment", "fecal consistency score": 1}
{"conditions": "day 11 post-treatment", "fecal consistency score": "1 and 2"}
{"conditions": "day 4 post-treatment", "fecal consistency score": "1 and 2"}
{"conditions": "day 4, second reading", "fecal consistency score": "2 and 1"}
{"conditions": "day 12 post-treatment", "fecal consistency score": 1}
{"note": "Repeated from above (block 3):"}
{"Structure (SMILES)": "COc1ccc([C@@]23Oc4cc(OC)cc(OC)c4[C@]2(O)c2nc(C(C)C)[nH]c(=O)c2[C@H]3c2ccccc2)cc1", "fluorescence polarization change": "17.6 mP"}
{"Structure (SMILES)": "COc1ccc([C@@]23Oc4cc(OC)cc(OC)c4[C@]2(O)c2nc(-c4cnccn4)[nH]c(=O)c2[C@H]3c2ccccc2)cc1", "fluorescence polarization change": "22.2 mP"}
{"Structure (SMILES)": "COc1ccc([C@@]23Oc4cc(OC)cc(OC)c4[C@]2(O)c2nc(-c4cccnc4)[nH]c(=O)c2[C@H]3c2ccccc2)cc1", "fluorescence polarization change": "31.2 mP"}
